Experimental data pooled from the literature.
Lines come from different studies, so protocols differ. ± gives the spread as reported.

Structure (SMILES) | target or system | assay | conditions | scale | endpoint | result
COc1ccccc1-c1ccncc1C(=O)Nc1nnc(OCc2ccc(Cl)cc2)s1 | DLD-1 BRCA2 wild-type | immunofluorescence | 10 µM, 96 h | – | γH2AX foci-positive nuclei | 24.7%
CN(C)c1ccc(-n2cc(COC(=O)[C@@]3(C)C=C(C(=O)OC(C)(C)C)C(=O)CC3)nn2)cc1 | AP-1 reporter HEK293 | AP-1 reporter gene, luciferase reporter | 10 µM, 6 h, with: PMA 6 ng/mL | reference: PMA alone | luminescence relative to PMA | 0.142
CC(C)(C)c1cc(-c2ccc3cc4ccccc4nc3n2)nc(-c2ccc3cc4ccccc4nc3n2)c1.[Cl-].[Cl-].[Ru+2].c1ccc2cc3nc4c5cccnc5c5ncccc5c4nc3cc2c1 | A-375 | – | visible light 100 J/cm2 | reference: dark EC50 over light EC50 | phototherapeutic index | 25
CC(C)c1ccc(N(C)c2ccc3c(c2)OCC[C@H]3CNc2cnccc2C(=O)O)cc1 | ECGI10 | cell viability, CellTiter-Glo | 7 days | – | IC50 | 22.4 nM
COCCn1cc(COc2cccc(Cc3cnc(NC(=O)CSc4nc(C)cc(C)n4)s3)c2)nn1 | PC-3M-luc | colony formation, colony forming | 10 µM | – | inhibition | 15.1 ± 13%
Cc1ncsc1-c1ccc(C(C)NC(=O)C2CC(O)CN2C(=O)C(NC(=O)CCCCCCCCCCN2CCCC(Nc3ncc(Cl)c(Nc4ccccc4S(=O)(=O)C(C)C)n3)C2)C(C)(C)C)cc1 (stereo not shown) | 22Rv1 | RNA-seq, item: ZNF79 mRNA | concentration not given | reference: DMSO | log2 fold change | -2.09
CN1CCCNC(=O)c2cccc(c2)C(=O)NCCCN(C)CCCNc2cccc3c2C(=O)c2cccc(c2C3=O)NCCC1 | SAS | RNA-Seq, item: MRPS27 mRNA | 1 µM, 6 h | reference: untreated cells | log2 fold change | -0.466
Cn1ncc2cc(-c3cncc(Cl)c3N3CCC4(CCNC4=O)CC3)ccc21 | LS174T | gene expression, microarray, item: SLC6A4 mRNA | concentration not given, 4 h | reference: untreated cells | log2 fold change | -1.43
O=C(N/N=C/c1cc[n+](Cc2ccccc2)c2ccccc12)c1cc(C(=O)N/N=C/c2cc[n+](Cc3ccccc3)c3ccccc23)ncn1 | hp2 hairpin duplex DNA | FRET melting | 1 µM, with: ds26 10 µM | – | ΔTm | 0.7 ± 0.2 °C
CCN(CC)CC(=O)Nc1cccc(-n2cc(-c3ccc4ccc(-c5cn(-c6cccc(NC(=O)CN(CC)CC)c6)nn5)cc4c3)nn2)c1 | RCC4 | PCR angiogenesis array, item: EFNB2 | 5 x IC50, 2 h, normoxia | reference: untreated | fold regulation | -1.08
Cc1ccncc1.[Cl-].[Cl-].[Ru+2].c1cc(-c2ccc3cccnc3n2)nc(-c2ccc3cccnc3n2)c1.c1ccc2cc3nc4c5cccnc5c5ncccc5c4nc3cc2c1 | A-375 | photocytotoxicity, resazurin | visible light 400-700 nm, 20 mW, 100 J/cm2 | – | EC50 | 1040 nM
CNS(=O)(=O)Nc1nccc(Cc2c(C)c3ccc(Oc4ncccc4F)cc3oc2=O)c1F | DMS-114 | cell viability | 7 days | – | IC50 | > 1000 nM
CC(C)(C)c1cc(-c2ccc3cccnc3n2)nc(-c2ccc3cccnc3n2)c1.[Cl-].[Cl-].[Ru+2].c1ccc2cc3nc4c5cccnc5c5ncccc5c4nc3cc2c1 | A-375 | resazurin | with: light 633 nm, 100 J/cm2 | reference: dark EC50 over light EC50 | phototoxicity index | 3
CCN(C(=O)c1cc(F)ccc1Oc1nncnc1N1CCC2(C1)CN([C@H](CCCN(C)CCOC)C(C)C)C2)C(C)C | DLD-1 | cell growth or viability | 72 h | – | GI50 | > 10000 nM
O=C(N/N=C/c1cc[n+](CC2CC2)c2ccccc12)C(=O)N/N=C/c1cc[n+](CC2CC2)c2ccccc12 | hp2 hairpin duplex DNA | FRET melting | 1 µM, with: ds26 10 µM | – | ΔTm | 0.4 ± 0.3 °C
CO[C@@H]1[C@@H](OC(N)=O)[C@@H](O)[C@H](Oc2ccc3c(O)c(NC(=O)c4ccc(O)c(CC=C(C)C)c4)c(=O)oc3c2C)OC1(C)C | DLD-1 BRCA2-/- | – | 50 µM, mean of replicates A, B | reference: untreated | colony survival | 34.7%

Some of these lines once more:
Structure (SMILES) | target or system | assay | conditions | scale | endpoint | result
CCN(C(=O)c1cc(F)ccc1Oc1nncnc1N1CCC2(C1)CN([C@H](CCCN(C)CCOC)C(C)C)C2)C(C)C | DLD-1 | cell growth or viability | 72 h | – | GI50 | > 10000 nM
O=C(N/N=C/c1cc[n+](CC2CC2)c2ccccc12)C(=O)N/N=C/c1cc[n+](CC2CC2)c2ccccc12 | hp2 hairpin duplex DNA | FRET melting | 1 µM, with: ds26 10 µM | – | ΔTm | 0.4 ± 0.3 °C
